Measurements of several laboratories.
A part holds a random share of what one study measured. Positions count from the first letter of the parent shown.

Sample 1 — method: protein-binding microarray; molecule type: double-stranded DNA, one strand shown; matrix: in vitro; tested at: 250 nM; notes: 60-bp whole probe; together with: salmon DNA 0.4 mg/ml; relative to: random background probes; direction: higher = stronger binding; quantity: log fluorescence
Target: Interferon regulatory factor 5, full length, phosphomimetic (IRF5, Homo sapiens, UniProt Q13568-2, residues 1-514, K96S/S451D/S453D/S456D/S462D)
Shared flanks, not repeated: GCCTAGCAC … GTGCTAGGTCTTGATTCGCTTGACGCTGCTG
GACGGTATCGGACCGGGGAC: 0.437 z-score
TTAGATCTGAGTTTCGATTA: 8.95 z-score
TCAGTTTTAAATTCTAAACT: 0.377 z-score
ACATATATACAGAGATAGAT: 0.261 z-score
TTAGATTTCAGTATCAATTA: 3.88 z-score

Sample 2 — method: RNA Bind-n-Seq; molecule type: RNA; matrix: in vitro; tested at: 200 nM; notes: whole 134-nt RNA, ends assumed; together with: 150 mM KCl; relative to: input library; direction: higher = stronger binding; quantity: log2 enrichment
Target: Ras GTPase-activating protein-binding protein 1, full length (G3BP1, Homo sapiens, UniProt Q13283)
Chain of UniProt Q13283 (whole entry, looked up): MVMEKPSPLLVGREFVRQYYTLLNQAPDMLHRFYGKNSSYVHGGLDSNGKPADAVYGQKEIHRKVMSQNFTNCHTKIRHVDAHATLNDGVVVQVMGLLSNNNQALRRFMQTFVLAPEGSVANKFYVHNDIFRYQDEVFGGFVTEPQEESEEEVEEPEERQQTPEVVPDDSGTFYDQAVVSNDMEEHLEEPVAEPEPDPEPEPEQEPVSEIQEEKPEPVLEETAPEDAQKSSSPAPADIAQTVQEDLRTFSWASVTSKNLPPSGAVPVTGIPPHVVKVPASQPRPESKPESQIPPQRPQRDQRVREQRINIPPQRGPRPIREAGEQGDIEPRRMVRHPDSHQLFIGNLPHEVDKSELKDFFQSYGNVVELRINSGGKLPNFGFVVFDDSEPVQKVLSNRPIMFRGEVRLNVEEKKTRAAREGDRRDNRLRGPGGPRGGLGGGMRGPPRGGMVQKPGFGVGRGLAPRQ
Shared flanks, not repeated: GGGAGUUCUACAGUCCGACGAUC … UGGAAUUCUCGGGUGUCAAGG
AAGUCCUGUGCUACACAUCGUAUGUACCGAAUCGGGAAAAAGGGUGGGUUUUUGGGAAAGUAUUAUGUUACGCCGUUCGGAUCUGCACUU: 0.251
UCCUGUGCUACACAUCGUAUGUACCGAAUCGGGGCCCCCCGGCCCCCCGGGGCCCCCCGGAAAGUAUUAUGUUACGCCGUUCGGAUCUGC: 0.112
CCUCAAGUCCUGUGCUACACAUCGUAUGUACCGAAUCGGGGAGGAGGGGAGGGAAAGUAUUAUGUUACGCCGUUCGGAUCUGCACUUCCA: 1.13
AGUCCUGUGCUACACAUCGUAUGUACCGAAUCGGGGUUUGGGGAAAGGGGAAAGGGGAAAGUAUUAUGUUACGCCGUUCGGAUCUGCACU: 0.795
AAGUCCUGUGCUACACAUCGUAUGUACCGAAUCGGGAAAAAGGGAAAAAGGGAGGGAAAGUAUUAUGUUACGCCGUUCGGAUCUGCACUU: 0.446
AGUCCUGUGCUACACAUCGUAUGUACCGAAUCAAACCCAAACCCCCAAAUUUUUAAAAAAGUAUUAUGUUACGCCGUUCGGAUCUGCACU: -0.39
GUCCUGUGCUACACAUCGUAUGUACCGAAUCGGGGAAAAAGGGAAAAAGGGAAAAAGGGAAAGUAUUAUGUUACGCCGUUCGGAUCUGCA: -0.0959
CCUGUGCUACACAUCGUAUGUACCGAAUCGGGGAGGGGUUUUUUUGGGGUUUUUUUGGGGAAAGUAUUAUGUUACGCCGUUCGGAUCUGC: 0.1

Sample 3 — target: CCNA2, cyclin fold, Cln2 fusion (human); method: yeast growth competition, sequencing; matrix: yeast; notes: weak parent motif; relative to: not given; direction: higher = stronger binding; quantity: normalised enrichment score
Starting sequence: LLGL2 docking peptide (human); KSLKKSLRQSFRR
Q9A: 1.45
F11A: 0.046
K5A: 1.25
R13A: 1.14
K1A: 0.765
S2A: 0.997

Mixed results
PhoQ, residues 284 288 289 292 302 303 SMYGEC — fold induction (PhoP, residues 12 14 15 18 19 AGCRL (Escherichia coli, UniProt P23836); Sort-seq, item: YFP reporter; E. coli; PhoQ-PhoP variant library, together with: 10 µM Mg2+; relative to: high Mg2+ state, higher = stronger signaling): 6.51

For quick reference, copied from above (sample 3):
R13A: 1.14
K1A: 0.765
S2A: 0.997
